Published values gathered from unrelated publications.
Lines come from different studies, so protocols differ. Numbers after ± are the reported error.
CYP2C19: Cytochrome P450 2C19 (CYP2C19, Homo sapiens, UniProt P33261)
Sequence of UniProt P33261 (whole entry, looked up): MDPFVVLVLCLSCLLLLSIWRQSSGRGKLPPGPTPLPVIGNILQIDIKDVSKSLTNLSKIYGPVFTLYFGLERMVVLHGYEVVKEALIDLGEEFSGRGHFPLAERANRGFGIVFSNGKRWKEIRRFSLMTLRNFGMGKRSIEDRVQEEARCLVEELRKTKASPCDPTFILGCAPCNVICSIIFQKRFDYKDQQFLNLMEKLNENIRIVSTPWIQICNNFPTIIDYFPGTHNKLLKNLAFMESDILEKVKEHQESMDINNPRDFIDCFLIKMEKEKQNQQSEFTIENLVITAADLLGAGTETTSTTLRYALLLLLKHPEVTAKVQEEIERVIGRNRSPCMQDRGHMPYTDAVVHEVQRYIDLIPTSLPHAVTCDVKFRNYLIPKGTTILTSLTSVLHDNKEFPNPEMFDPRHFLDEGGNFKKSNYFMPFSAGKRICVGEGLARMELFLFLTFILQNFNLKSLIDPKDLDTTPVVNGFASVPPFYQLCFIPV
SIRT5: NAD-dependent protein deacylase sirtuin-5, mitochondrial (SIRT5, Homo sapiens, UniProt Q9NXA8)
Sequence of UniProt Q9NXA8 (whole entry, looked up): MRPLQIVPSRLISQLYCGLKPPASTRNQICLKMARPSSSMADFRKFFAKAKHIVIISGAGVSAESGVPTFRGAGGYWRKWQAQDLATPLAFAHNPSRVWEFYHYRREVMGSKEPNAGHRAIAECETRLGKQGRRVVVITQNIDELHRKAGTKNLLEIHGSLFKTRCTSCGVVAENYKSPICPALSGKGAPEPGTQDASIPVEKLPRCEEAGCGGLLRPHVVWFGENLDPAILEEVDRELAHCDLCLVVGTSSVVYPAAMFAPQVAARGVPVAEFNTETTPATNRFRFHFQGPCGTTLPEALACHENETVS
Formate-nitrite transporter: Formate-nitrite transporter (Plasmodium falciparum, UniProt O77389)
Sequence of UniProt O77389 (whole entry, looked up): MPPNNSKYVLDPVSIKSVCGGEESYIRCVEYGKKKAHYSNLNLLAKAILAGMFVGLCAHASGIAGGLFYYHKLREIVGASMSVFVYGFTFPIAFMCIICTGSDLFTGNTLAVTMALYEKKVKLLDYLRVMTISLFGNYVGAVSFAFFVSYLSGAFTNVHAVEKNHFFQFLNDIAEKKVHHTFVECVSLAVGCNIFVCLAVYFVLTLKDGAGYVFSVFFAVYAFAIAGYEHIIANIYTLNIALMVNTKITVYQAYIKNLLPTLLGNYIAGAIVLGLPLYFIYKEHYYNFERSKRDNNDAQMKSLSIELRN
CXCR4: C-X-C chemokine receptor type 4 (CXCR4, Homo sapiens, UniProt P61073)
Sequence of UniProt P61073 (whole entry, looked up): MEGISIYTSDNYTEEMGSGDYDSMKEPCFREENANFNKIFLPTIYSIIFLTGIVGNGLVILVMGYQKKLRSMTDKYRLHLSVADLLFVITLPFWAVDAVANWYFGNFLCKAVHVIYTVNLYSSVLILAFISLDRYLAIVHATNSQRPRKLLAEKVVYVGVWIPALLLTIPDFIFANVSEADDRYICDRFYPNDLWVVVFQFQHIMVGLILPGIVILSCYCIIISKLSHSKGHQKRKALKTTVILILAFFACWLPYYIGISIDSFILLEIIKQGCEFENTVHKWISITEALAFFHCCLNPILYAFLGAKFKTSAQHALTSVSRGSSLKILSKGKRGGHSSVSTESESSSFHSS
lasR: Transcriptional activator protein LasR (lasR, Pseudomonas aeruginosa, UniProt P25084)
Sequence of UniProt P25084 (whole entry, looked up): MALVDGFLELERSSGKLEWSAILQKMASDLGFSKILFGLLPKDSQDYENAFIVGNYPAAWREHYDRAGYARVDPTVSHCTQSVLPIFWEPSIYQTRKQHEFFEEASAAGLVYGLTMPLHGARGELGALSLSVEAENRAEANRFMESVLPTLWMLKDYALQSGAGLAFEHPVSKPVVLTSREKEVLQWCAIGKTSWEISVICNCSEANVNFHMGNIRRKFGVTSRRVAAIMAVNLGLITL
blaNDM-1: Metallo-beta-lactamase type 2 (blaNDM-1, Klebsiella pneumoniae, UniProt C7C422)
Sequence of UniProt C7C422 (whole entry, looked up): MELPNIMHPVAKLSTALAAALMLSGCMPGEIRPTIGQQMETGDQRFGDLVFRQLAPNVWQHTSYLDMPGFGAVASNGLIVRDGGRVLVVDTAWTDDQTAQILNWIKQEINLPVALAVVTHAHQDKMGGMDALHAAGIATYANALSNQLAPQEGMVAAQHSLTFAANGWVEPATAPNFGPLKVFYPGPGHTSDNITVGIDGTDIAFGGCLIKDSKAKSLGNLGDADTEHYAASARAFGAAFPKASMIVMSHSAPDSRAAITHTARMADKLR
Sequence of UniProt Q99436 (whole entry, looked up): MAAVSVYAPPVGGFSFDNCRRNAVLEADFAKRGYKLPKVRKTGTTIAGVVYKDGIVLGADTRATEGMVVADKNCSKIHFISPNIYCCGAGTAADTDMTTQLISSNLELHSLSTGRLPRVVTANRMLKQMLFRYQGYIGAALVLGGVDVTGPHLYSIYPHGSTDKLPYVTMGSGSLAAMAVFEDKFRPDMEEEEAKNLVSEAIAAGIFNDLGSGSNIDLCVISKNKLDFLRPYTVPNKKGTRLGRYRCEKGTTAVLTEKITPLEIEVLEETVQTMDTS
Sequence of UniProt P97583 (whole entry, looked up): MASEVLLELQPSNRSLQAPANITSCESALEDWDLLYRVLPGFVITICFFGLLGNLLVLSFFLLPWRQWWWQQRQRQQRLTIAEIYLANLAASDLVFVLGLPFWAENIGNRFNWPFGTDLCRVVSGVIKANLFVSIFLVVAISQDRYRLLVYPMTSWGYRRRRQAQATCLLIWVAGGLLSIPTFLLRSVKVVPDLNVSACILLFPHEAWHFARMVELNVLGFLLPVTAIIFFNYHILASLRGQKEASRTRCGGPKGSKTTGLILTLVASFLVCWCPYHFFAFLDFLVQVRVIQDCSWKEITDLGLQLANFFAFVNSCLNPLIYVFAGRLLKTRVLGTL
Sequence of UniProt P19490 (whole entry, looked up): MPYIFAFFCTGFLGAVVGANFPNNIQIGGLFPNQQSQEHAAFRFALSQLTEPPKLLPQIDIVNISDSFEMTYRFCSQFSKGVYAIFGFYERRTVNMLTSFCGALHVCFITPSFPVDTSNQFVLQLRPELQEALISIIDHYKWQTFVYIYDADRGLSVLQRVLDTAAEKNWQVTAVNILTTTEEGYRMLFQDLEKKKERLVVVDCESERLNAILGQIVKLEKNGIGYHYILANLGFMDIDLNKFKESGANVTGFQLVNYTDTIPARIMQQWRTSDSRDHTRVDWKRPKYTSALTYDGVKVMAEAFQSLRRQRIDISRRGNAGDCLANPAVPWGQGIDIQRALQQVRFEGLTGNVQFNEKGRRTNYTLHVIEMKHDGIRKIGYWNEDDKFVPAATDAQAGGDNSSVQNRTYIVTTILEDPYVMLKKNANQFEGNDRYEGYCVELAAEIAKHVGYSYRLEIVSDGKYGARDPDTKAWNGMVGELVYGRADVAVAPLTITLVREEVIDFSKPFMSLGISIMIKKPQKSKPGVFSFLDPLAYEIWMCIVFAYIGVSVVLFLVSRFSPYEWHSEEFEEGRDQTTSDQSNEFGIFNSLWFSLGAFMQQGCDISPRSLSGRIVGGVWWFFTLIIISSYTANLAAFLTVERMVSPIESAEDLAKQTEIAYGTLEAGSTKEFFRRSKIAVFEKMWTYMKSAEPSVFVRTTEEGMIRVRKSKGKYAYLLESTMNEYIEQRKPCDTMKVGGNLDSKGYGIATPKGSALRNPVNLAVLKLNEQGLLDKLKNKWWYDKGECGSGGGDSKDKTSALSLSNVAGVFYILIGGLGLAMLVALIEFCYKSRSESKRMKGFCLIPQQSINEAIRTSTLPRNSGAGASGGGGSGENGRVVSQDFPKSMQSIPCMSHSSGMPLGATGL
Sequence of UniProt Q2FDS6 (whole entry, looked up): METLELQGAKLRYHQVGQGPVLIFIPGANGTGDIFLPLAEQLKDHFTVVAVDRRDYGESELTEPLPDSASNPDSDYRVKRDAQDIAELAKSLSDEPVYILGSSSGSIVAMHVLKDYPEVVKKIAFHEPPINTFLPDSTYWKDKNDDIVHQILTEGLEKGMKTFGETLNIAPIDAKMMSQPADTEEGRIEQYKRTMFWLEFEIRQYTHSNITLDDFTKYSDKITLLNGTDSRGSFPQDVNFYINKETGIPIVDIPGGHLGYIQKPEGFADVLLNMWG
Sequence of UniProt Q07343 (whole entry, looked up): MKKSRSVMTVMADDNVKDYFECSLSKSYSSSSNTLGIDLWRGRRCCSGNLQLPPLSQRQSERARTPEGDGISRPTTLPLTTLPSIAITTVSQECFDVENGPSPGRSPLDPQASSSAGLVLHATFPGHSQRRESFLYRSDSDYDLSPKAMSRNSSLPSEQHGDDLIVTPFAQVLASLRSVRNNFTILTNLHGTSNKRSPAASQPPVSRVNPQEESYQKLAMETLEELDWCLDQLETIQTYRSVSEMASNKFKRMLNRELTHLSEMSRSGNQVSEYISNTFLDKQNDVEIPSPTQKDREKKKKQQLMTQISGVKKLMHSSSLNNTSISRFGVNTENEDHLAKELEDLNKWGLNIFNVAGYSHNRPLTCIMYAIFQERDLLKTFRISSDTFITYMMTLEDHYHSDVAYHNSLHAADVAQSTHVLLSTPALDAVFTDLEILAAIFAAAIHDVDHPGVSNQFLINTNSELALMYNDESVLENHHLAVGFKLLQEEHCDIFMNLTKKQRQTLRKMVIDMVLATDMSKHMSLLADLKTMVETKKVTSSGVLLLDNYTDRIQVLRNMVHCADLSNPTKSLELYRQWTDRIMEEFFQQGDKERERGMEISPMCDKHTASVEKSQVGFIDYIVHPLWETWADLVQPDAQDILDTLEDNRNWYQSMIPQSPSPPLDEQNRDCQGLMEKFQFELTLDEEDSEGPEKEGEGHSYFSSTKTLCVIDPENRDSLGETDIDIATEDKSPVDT
Sequence of UniProt O55040 (whole entry, looked up): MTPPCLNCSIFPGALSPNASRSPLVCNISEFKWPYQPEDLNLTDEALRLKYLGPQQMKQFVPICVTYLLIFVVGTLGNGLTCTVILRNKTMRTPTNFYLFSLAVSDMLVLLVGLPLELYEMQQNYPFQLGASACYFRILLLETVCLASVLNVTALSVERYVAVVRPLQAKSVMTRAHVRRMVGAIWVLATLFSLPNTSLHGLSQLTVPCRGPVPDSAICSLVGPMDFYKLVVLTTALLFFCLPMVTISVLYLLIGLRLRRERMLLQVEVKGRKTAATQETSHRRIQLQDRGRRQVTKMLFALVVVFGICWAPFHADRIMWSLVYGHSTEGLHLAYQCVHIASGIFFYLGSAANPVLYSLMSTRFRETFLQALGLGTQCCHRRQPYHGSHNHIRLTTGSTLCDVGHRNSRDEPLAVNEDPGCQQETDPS

For Cc1ccc(CNC(=O)c2ccn3c(-c4ccc(C#N)cc4)cnc3c2)cn1, the IC50 was over 10 µM (CYP2C19; enzyme activity, inhibitor).
For NC(=O)c1ccc(N)nc1, the IC50 was 2 µM (NNMT (Homo sapiens, UniProt P40261); enzyme activity in cells, inhibitor).
The IC50 of CN(C(=O)c1ccn2ncc(-c3ccc(C(N)=O)cc3)c2c1)c1ccc(C#N)cn1 is reported as 0.011 ± 0.0019 µM (Phosphatidylinositol 4-kinase (Cryptosporidium parvum, UniProt Q5CVD3, H1037Y); inhibitor).
For O=C(Nc1nccs1)c1c(O)c2c(n(Cc3ccccc3)c1=O)CCCC2, the IC50 was 61.1 µM (Uncharacterized protein (Trypanosoma brucei brucei, UniProt Q386Q8); enzyme activity, inhibitor, coupled colorimetric; with: E. coli pyrophosphatase coupling).
C#CCNC(=O)c1ccc(S(=O)(=O)N[C@@H](CCCCNC(=O)c2cncc(OS(=O)(=O)F)c2)C(=O)N[C@@H](CCCNC(=N)N)C(=O)NC2CCC2)cc1 gave an IC50 of 5 ± 1.9 µM (SIRT5; inhibitor, fluorogenic; pre-incubation 24 h, with: NAD+ 500 µM).
For CC12CCC3C4CCC(C#N)CC4CCC3C1CCC2O (centres unmarked), the IC50 was 6.82 µM (ADRA2A (Homo sapiens, UniProt P08913); antagonist).
For CCNc1ccc(C(=O)C=C(O)C(F)(F)C(F)(F)F)cn1, the IC50 was 0.039 ± 0.009 µM (Formate-nitrite transporter; L-lactate transport, inhibitor, fluorescence; yeast; pH 6.8, with: L-lactate 1 mM).
C#CCNC(=O)c1ccc(S(=O)(=O)N[C@@H](CCCCNC(=S)NC)C(=O)N[C@@H](CCCNC(=N)N)C(=O)N[C@@H](CC2CCCCC2)C(=O)N[C@H](CCCCN)C(=O)N[C@@H](CC2CCCCC2)C(N)=O)cc1 gave an IC50 of 0.37 µM (SIRT2 (Homo sapiens, UniProt Q8IXJ6); enzyme activity, inhibitor, fluorescence).
With Cc1ccc2c(n1)c(-c1cccc(S(C)(=O)=O)c1)c(C)n2C/C(F)=C/CN the IC50 was 0.35 µM (CYP2C19; enzyme activity, inhibitor; human, liver microsomes).
OC[C@@H]1[C@@H](O)[C@H](O)[C@@H](O)[C@H]2N[C@@H]12 gave an IC50 of 1.42 ± 0.06 µM (Oligosaccharide 4-alpha-D-glucosyltransferase (agd31B, Cellvibrio japonicus, UniProt B3PEE6); enzyme activity, inhibitor; 30 min preincubation, pH 6.5, 25 °C).
CCCCNc1ccc(C(=O)C=C(O)C(F)(F)C(F)(F)F)cn1 has an IC50 of 0.036 ± 0.02 µM (Formate-nitrite transporter; L-lactate transport, inhibitor, fluorescence; yeast; pH 6.8, with: L-lactate 1 mM).
CN1C(=O)[C@@H](Cc2ccc(O)cc2)NC(=O)CNC(=O)[C@H](Cc2ccc3ccccc3c2)NC(=O)[C@H](CCCNC(=N)N)NC(=O)[C@H]1CCCNC(=O)c1ccc(NC(=O)CCNC(=O)CN2CCN(CC(=O)O)CCN(CC(=O)O)CCN(CC(=O)O)CC2)cc1 has an IC50 of 0.0417 ± 0.0155 µM (CXCR4).
The IC50 of CCCCCCCCCCCCCCCCCC(=O)NC[C@H]1CC[C@H](C(=O)N[C@@H](CCC(=O)NCCCOCCOCCOCCCNC(=O)COCC(=O)N[C@@H](Cc2ccc(O)cc2)C(=O)NC(C)(Cc2ccccc2)C(=O)N[C@@H](CC(C)C)C(=O)N[C@@H](CCCC)C(=O)N[C@@H](CCCNC(=N)N)C(=O)N2CCC[C@H]2C(=O)N[C@@H](CCCNC(=N)NC)C(=O)N[C@@H](CC(N)=O)C(N)=O)C(=O)O)CC1 (some centres unmarked) is reported as 0.027 µM (Neuromedin-U receptor 1 (Mus musculus, UniProt O55040); IP-1 accumulation, antagonist; 30 min preincubation, with: 0.8 nM mouse NMU-23).
The IC50 of CSCC[C@H]1NC(=O)[C@H](Cc2ccccc2)NC(=O)[C@H](NC(=O)[C@H](C)N)CSC(=O)[C@H](C(C)C)NC(=O)[C@H](Cc2ccccc2)NC1=O is reported as 0.242 µM (Histidine kinase AgrC (Listeria monocytogenes, UniProt A8E0G3); agr signalling).
The IC50 of COC(=O)Cc1cc2c(cc1C(=O)c1cccc(Br)c1)OCO2 is reported as 5.37 µM (Gria1 (Rattus norvegicus, UniProt P19490); glutamate-evoked current, inhibitor, whole-cell patch clamp; HEK293T, homomeric receptor).
O=C(C=C(O)C(F)(F)C(F)(F)F)c1ccsc1 gave an IC50 of 0.028 ± 0.005 µM (Formate-nitrite transporter; L-lactate transport, inhibitor, fluorescence; yeast; pH 6.8, with: L-lactate 1 mM).
C#CCNC(=O)c1ccc(S(=O)(=O)N[C@@H](CCCCNC(=O)c2cncc(OS(=O)(=O)F)c2)C(=O)N[C@@H](Cc2c[nH]c3ccccc23)C(=O)NC2CCC2)cc1 has an IC50 of 100 ± 135 µM (SIRT5; inhibitor, fluorogenic; 0 h preincubation, His-tagged enzyme 150 nM, with: NAD+ 500 µM).
O=C(C=C(O)C(F)(F)C(F)(F)F)c1ccc(N2CCNCC2)nc1 gave an IC50 of 8.41 ± 1.88 µM (Formate-nitrite transporter; L-lactate transport, inhibitor, fluorescence; yeast; pH 6.8, with: L-lactate 1 mM).
For CC[C@H](C)[C@H](NC(=O)[C@H](CCCNC(=N)N)NC(=O)[C@H](C)NC(=O)[C@@H](N)CC(C)C)C(=O)N[C@@H](CCCNC(=N)N)C(=O)N1CCC[C@H]1C(=O)N[C@@H](CCCCN)C(=O)N[C@@H](CC(C)C)C(=O)N[C@@H](CCCCN)C(=O)O, the IC50 was 0.1 µM (B1 bradykinin receptor (Rattus norvegicus, UniProt P97583); ligand displacement, radioligand; cell membranes).
For O=C(CCCOc1cccc(Br)c1)N[C@H]1CCSC1=O, IC50 read “no inhibition” (lasR; plasI-LVAgfp reporter, antagonist; PAO-JP2 pump-active; with: OdDHL 150 nM).
C#CCNC(=O)c1ccc([P+](CCCC(=O)N[C@@H](CCCCNC(=O)c2cncc(OS(=O)(=O)F)c2)C(=O)N[C@@H](CCCNC(=N)N)C(=O)NC2CCC2)(c2ccccc2)c2ccccc2)cc1 has an IC50 of 18.2 ± 0.6 µM (SIRT5; inhibitor, fluorogenic; pre-incubation 4 h, with: NAD+ 500 µM).
COC(F)(F)C(F)(F)C(O)=CC(=O)c1cccnc1 gave an IC50 of 0.133 ± 0.019 µM (Formate-nitrite transporter; L-lactate transport, inhibitor, fluorescence; yeast; pH 6.8, with: L-lactate 1 mM).
The IC50 of O=C(O)CCn1c(=O)oc2cc(Cl)c(Cl)cc21 is reported as over 158 µM (PDE4B (Homo sapiens, UniProt Q07343); enzyme activity, inhibitor).
O=C1CCN1c1cccc(O)c1 has an IC50 of over 50 µM (Uncharacterized hydrolase SAUSA300_2518 (Staphylococcus aureus, UniProt Q2FDS6); enzyme activity, inhibitor).
The IC50 of O=P(O)(O)C(Nc1ccccc1)P(=O)(O)O is reported as over 1000 µM (polyphosphate kinase 2 (Cytophaga hutchinsonii, UniProt A0A6N4SMB5)).
CC(C)N1CCCCC1C(=O)NC(Cc1ccc(-c2ccccc2)cc1)B(O)O (centres unmarked) gave an IC50 of over 10 µM (Proteasome subunit beta type-3/PSMB7 (Homo sapiens, UniProt P49720+Q99436); β2c trypsin-like activity, inhibitor; constitutive proteasome, with: Ac-KQL-AMC).
CC1(C)NC(=O)[C@@H](CCC(=O)O)NC(=O)[C@H](CCC(=O)O)NC(=O)[C@H](CCCN)NC(=O)[C@H](C(c2ccccc2)c2ccccc2)NC(=O)[C@@H]2CCCN2C(=O)[C@H]2CCCN2C(=O)[C@H](CC(N)=O)NC1=O has an IC50 of 111 µM (blaNDM-1; enzyme activity, inhibitor, absorbance).
The IC50 of CCC(C(=O)Nc1ccccc1C)n1c(SCc2ccc(F)cc2)nc2ncccc21 (centres unmarked) is reported as over 100 µM (Prothrombin (F2, Homo sapiens, UniProt P00734); enzyme activity, inhibitor).
For CC(C)C[C@H](NC(=O)[C@H](Cc1ccc(CN)cc1)NC(=O)[C@H](Cc1ccccc1)N=[N+]=[N-])C(=O)N[C@@H](CC1CC2CCC1C2)C(=O)[C@@]1(C)CO1 (stereo in doubt), the IC50 was 1.16 µM (PSMB7 (Homo sapiens, UniProt Q99436); inhibitor, competitive ABPP; Raji cell lysate; constitutive proteasome β2c).
For O=C(c1cc(Cc2n[nH]c(=O)c3ccccc23)ccc1F)N1CC(CNC2CC2)C1, the IC50 was over 10 µM (Protein mono-ADP-ribosyltransferase PARP8 (Homo sapiens, UniProt Q8N3A8); enzyme activity, inhibitor).
The IC50 of COCCCC1CCCCN1C(=O)Oc1ccc([N+](=O)[O-])cc1 (centres unmarked) is reported as over 100 µM (DPP4 (Homo sapiens, UniProt P27487); enzyme activity, inhibitor, fluorescence).
The IC50 of CCCCCC(=O)CC(=O)N[C@H]1CCOC1=O is reported as 0.2 µM (lasR; reporter gene, antagonist; Escherichia coli, JLD271 with LasR plasmid; with: OdDHL 5 nM).
CC(C)C[C@H]1NC(=O)[C@@H]2CCCN2C(=O)[C@@H](CS)NC(=O)[C@@H](C(C)C)NC(=O)[C@H](CO)NC(=O)[C@H](CCC(=O)O)NC(=O)[C@@H](CCCNC(=N)N)NC(=O)[C@H](C)NC1=O gave an IC50 of 471 µM (blaNDM-1; enzyme activity, inhibitor, absorbance).
With CC(C)C[C@@H](N)C(=O)NCC(=O)N[C@H](C)C(=O)N[C@H](CO)C(=O)N[C@H](Cc1c[nH]c2ccccc12)C(=O)N[C@H](Cc1c[nH]cn1)C(=O)N[C@H](CCCNC(=N)N)C(=O)N1CCC[C@@H]1C(=O)N[C@H](CC(=O)O)C(=O)N[C@H](CCCCN)C(=O)N[C@H](CCCCN)C(=O)N[C@H](CCCNC(=N)N)C(=O)NCCCCCC(=O)N[C@@H](CCCCN)C(=O)N[C@@H](CCCNC(=N)N)C(=O)N[C@@H](CCCCN)C(=O)N[C@@H](CCC(N)=O)C(=O)N[C@@H](CCCNC(=N)N)C(=O)NCC(=O)N1CCC[C@H]1C(=O)NCC(=O)N[C@@H](CCCNC(=N)N)C(=O)N[C@@H](C)C(=O)N[C@@H](Cc1ccccc1)C(N)=O the IC50 was 6.08 µM (CXCR4; cell migration, antagonist).
With CCCC[C@@H]1NC(=O)[C@@H](CCC(N)=O)NC(=O)[C@H]2CCCN2C(=O)[C@H](CCCCN)NC(=O)[C@@H]2C[C@@H](O)CN2C(=O)[C@H](Cc2ccccc2CN)NC(=O)[C@@H]2CCCN2C(=O)[C@@H](CS)NC1=O the IC50 was 129 µM (blaNDM-1; enzyme activity, inhibitor, absorbance).
The IC50 of CCCNc1ccc(C(=O)C=C(O)C(F)(F)C(F)(F)F)cn1 is reported as 0.113 ± 0.031 µM (Formate-nitrite transporter; L-lactate transport, inhibitor, fluorescence; yeast; pH 6.8, with: L-lactate 1 mM).
The IC50 of O=S(=O)(O)C(F)(F)C(F)(F)C(F)(F)C(F)(F)C(F)(F)C(F)(F)C(F)(F)C(F)(F)F is reported as 11.1 µM (FABP4 (Homo sapiens, UniProt P15090); ligand displacement, fluorescence; pH 7.5).
CC[C@H](C)[C@H](NC(=O)[C@H](CCC(=O)O)NC(=O)[C@H](C)NC(=O)[C@@H](NC(=O)[C@H](Cc1c[nH]cn1)NC(=O)[C@@H](NC(=O)[C@H](CCC(=O)O)NC(=O)[C@H](C)NC(=O)[C@@H](NC(=O)[C@H](CC(C)C)NC(=O)[C@H](Cc1c[nH]cn1)NC(=O)[C@H](Cc1c[nH]cn1)NC(=O)[C@H]1CCC[C@@H]1NC(=O)[C@H](Cc1ccccc1)NC(=O)[C@H](Cc1ccccc1)NC(=O)[C@H](CCCNC(=N)N)NC(=O)[C@H](CCCNC(=N)N)NC(=O)[C@H](CCCNC(=N)N)NC(=O)[C@H](CC(C)C)NC(=O)[C@H](CC(=O)O)NC(=O)[C@H](CCC(N)=O)NC(=O)[C@@H](NC(=O)[C@H](CO)NC(=O)[C@H](CCCCN)NC(=O)CNC(=O)[C@H](CCCCN)NC(=O)[C@H](CC(=O)O)NC(=O)[C@H](Cc1c[nH]cn1)NC(=O)[C@H](CC(C)C)NC(=O)[C@H](CC(C)C)NC(=O)[C@H](CCC(N)=O)NC(=O)[C@H](Cc1c[nH]cn1)NC(=O)[C@H](CCC(=O)O)NC(=O)[C@H](CO)NC(=O)[C@@H](NC(=O)[C@H](C)N)C(C)C)[C@@H](C)CC)[C@@H](C)CC)[C@@H](C)CC)[C@@H](C)O)C(N)=O gave an IC50 of 0.0155 µM (PTH1R (Homo sapiens, UniProt Q03431); ligand displacement, radioligand; cell membranes).

For quick reference, copied from above:
CC(C)C[C@H]1NC(=O)[C@@H]2CCCN2C(=O)[C@@H](CS)NC(=O)[C@@H](C(C)C)NC(=O)[C@H](CO)NC(=O)[C@H](CCC(=O)O)NC(=O)[C@@H](CCCNC(=N)N)NC(=O)[C@H](C)NC1=O gave an IC50 of 471 µM (blaNDM-1; enzyme activity, inhibitor, absorbance).
For CCNc1ccc(C(=O)C=C(O)C(F)(F)C(F)(F)F)cn1, the IC50 was 0.039 ± 0.009 µM (Formate-nitrite transporter; L-lactate transport, inhibitor, fluorescence; yeast; pH 6.8, with: L-lactate 1 mM).
The IC50 of CCCNc1ccc(C(=O)C=C(O)C(F)(F)C(F)(F)F)cn1 is reported as 0.113 ± 0.031 µM (Formate-nitrite transporter; L-lactate transport, inhibitor, fluorescence; yeast; pH 6.8, with: L-lactate 1 mM).
OC[C@@H]1[C@@H](O)[C@H](O)[C@@H](O)[C@H]2N[C@@H]12 gave an IC50 of 1.42 ± 0.06 µM (Oligosaccharide 4-alpha-D-glucosyltransferase (agd31B, Cellvibrio japonicus, UniProt B3PEE6); enzyme activity, inhibitor; 30 min preincubation, pH 6.5, 25 °C).
